Experimental data gathered from unrelated publications.
Every numbered part comes from another study and shows a few of its results, in no order. Changes are numbered by the printed parent chain.

Set 1
Target: RNA binding protein fox-1 homolog 2, RRM domain, GST-SBP tag (RBFOX2, Homo sapiens, UniProt O43251-10, residues 100-194)
Technique: RNA Bind-n-Seq
Form: RNA
Medium: in vitro
Tested at: 365 nM
Setting: natural RNA segment, single round, ends assumed
Baseline: no-protein control
Direction: higher = stronger binding
Measurement: RBNS enrichment (R)
All sequences stand within: GGGAGUUCUACAGUCCGACGAUC … UGGAAUUCUCGGGUGCCAA
Residues (chain): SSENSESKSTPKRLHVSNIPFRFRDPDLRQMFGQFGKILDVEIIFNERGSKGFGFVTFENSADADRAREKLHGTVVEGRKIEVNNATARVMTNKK
CUGUGCACUAGCCUGUGAUUAACUUGCUUAGUAUGGUUCUCAGAUCUUGACAGUAUAUUUGAAACUGUAAAUAUGUUUGUGCCUUAAAAGGAGAGAAGAAAGUGUAGAUA: 0.651
GCGUGUGCAUUUGUGAACACGUACAGCAUAUCUAUACAAAAUUCUGCUAUAGUGUGAAAAUCAGGGCUAAAAACCUGAAGCCUUUGUUUAAUUAUGCUUUUCCUCUAAAU: 0.385
UGUUAGAUUCAACACUGCGCUAAAGCGGGGAUGUUCCAUUGAAUAAAAGAGCAGUGUGGUUUUCUGGUCUGCUUCUUUAUUUUCUUUUUAAUGCCUGCCCCGCCCGGUUU: 0.353
GGACCCAAACCAGCGCCUCACUCUAGGGUAGCCCAGGGCGCAGGUGCCAGGUCUGCCUAGCGUUUACCACUGUUGUUAAGCCACAGCCCUUGGCCACCACAUGGCCAUCC: 0.208
UCUUUUUCUAUUUGUAGGUCAAAGACAAGUGCCUUCUAUGGCAUGGGAAAGGGCUUUAUUCUUAUAAGAGUCUGGCCUGUCUUAACUAGAAGACGGGUAGGAAGGAUACU: 0.256
UGUAACUCAGUGUGAAGCAAGUGUUUGUCCCUGCCCGCUAUCAGCCUACAGAGCAACAUUGUCAUUGGCCAAGGUCAGUCCUGAGGGAUGAUGAUUUCAAUGUCAGAAAA: 0.26
CUGGCUGGGUUUAUUUAAGAGUGGGAGAGCAUCCAUUGUCCAAACUGAGAGCAGCAACAGCCCUCUCUUCCUGCCCCCACCUAGGAGUGCCAAUACACUUAAGCUUUGUC: 0.582

Set 2
Target: CCNF, cyclin fold, Cln2 fusion (human)
Technique: yeast growth competition, sequencing
Medium: yeast
Setting: strong parent motif
Baseline: not given
Direction: higher = stronger binding
Measurement: normalised enrichment score
Starting sequence: RB1 docking peptide (human); PKPLKKLRFDIEG
K6F: 1.09
K2I: 2.25
K5R F9L: 0.802
R8Y: 1.66
L7E: 0.322
R8H: 2.32
K5V: 0.418
E12V: 0.805

Set 3
Target: RING finger protein unkempt homolog, zinc fingers 1-6, GST-SBP tag (UNK, Homo sapiens, UniProt Q9C0B0, residues 30-357)
Sequence of UniProt Q9C0B0 (30-357, looked up): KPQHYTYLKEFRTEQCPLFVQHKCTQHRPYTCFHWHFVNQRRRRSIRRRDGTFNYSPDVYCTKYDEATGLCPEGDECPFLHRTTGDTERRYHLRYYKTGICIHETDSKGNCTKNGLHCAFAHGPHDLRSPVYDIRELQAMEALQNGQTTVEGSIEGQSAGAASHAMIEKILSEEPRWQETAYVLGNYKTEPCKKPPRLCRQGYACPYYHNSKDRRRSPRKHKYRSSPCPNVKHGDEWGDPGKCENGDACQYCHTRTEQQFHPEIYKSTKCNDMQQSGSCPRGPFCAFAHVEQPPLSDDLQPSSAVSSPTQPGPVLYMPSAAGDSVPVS
Technique: RNA Bind-n-Seq
Form: RNA
Medium: in vitro
Tested at: not given
Setting: RNA with constant flanks, human and mouse sites, ends assumed
Baseline: input RNA pool
Direction: higher = stronger binding
Measurement: bound/input enrichment
All sequences stand within: GGGAGUUCUACAGUCCGACGAUC … CAACAGAGGAUUGAGCAUCA
GACUUUGGGACUGGUCCUCGCAACGCAGCCUUCUAUAGCCCUCAUGGACAUAUAUUAGUGCUGGCUGGAUUUGGAAAUCUUCGAGGACAAAUGGAAGUAUGGGAUGUUAAAAACUACAAG: 0.356 ratio
CCUGUUGGCAGAGCUGGGGUCCUGCUUUCUGAAAUCCUACACCUUCUAUGCAGACAAAUGAGCCAUAAGAAAGUAGGCGCCCUGUGGAGGGAGGCUGACCUCAGCUGGAAGGACUUUUUA: 0.152 ratio
GCUGUCAUGGAGGUCCAUUUCCUAAACCAAAAUACUCAAGCCUUCUUCAGAGUGUUUGGCUCUUGCAGCAAAACAAUCGAGAUGCUAAGUGGGAGGAUUACAAUGUUUGUAGAGCGACCC: 0.15 ratio
AAUAUGAGGGCCAGGCAGCAGGCCAAGCGAGAAGCUUGCAGUGAUGCCAUGUCUGGAGCUAUAGAUACAAAUAAGAAAGAGUCCUGGUUCUUGCCUGAAGAGAAAGCUAAUGUUUUUUCA: 0.861 ratio
CGAUGCCUAAGAUGGGGAGGAGGUUAUGAAGGACAGAAUCUGGCAAAGAUCCUCAAGGAUUUAGAGAUGAGUAAAGUGGUACAUAUGGAUCGAUGGUCUGUGGAGGUGAUACCUCAACAA: 0.336 ratio
CUUGGUUUGCCUAUGUCAAGAUCACAGCCUUUGCAAAAUGUUAGCACAGUGCUGCAGAAGCCUAAUCCUCUCUAUAAUCAGAAUACAGAUAUGGUCCAGAAAUCAGUCAGCAAAACCUUG: 0.219 ratio
AAUAUCAAGAACAAGGUGAUGGUCAAUCAAGACAGAGCCAGUCAGCAAAUCAACGCGCUGCGGAGCGAGAUCACGCGCCUUCAGAUGGAGCUCAUGGAAUACAAAACCGGUAAAAGAAUA: 0.171 ratio
GGAGCUUUAUCUAAGGCUAUUGACAGAGGAACAAGGGGUAUCAGUUUUGUCCUGAGUGCUUUGGUAUUUAAUCUUCUUCCCAUCAUGUUUGAAGUGAUGCUUGUCAGUGGUGUUUUGUAU: 0.306 ratio

Other studies, line by line
PhoQ, residues 284 288 289 292 302 303 NLAAMI
fold induction (PhoP, residues 12 14 15 18 19 LWHVM (Escherichia coli, UniProt P23836); Sort-seq, item: YFP reporter; E. coli; PhoQ-PhoP variant library, with: 10 µM Mg2+; baseline: high Mg2+ state, higher = stronger signaling): 0.718

Some of these lines once more (set 2):
K5V: 0.418
E12V: 0.805
